{"data": "Experimental data from different studies", "Melanocortin receptor 4": "Melanocortin receptor 4 (Mus musculus, UniProt P56450)", "ATP2A2": "ATP2A2 (Sus scrofa, UniProt P11607)", "DNA topoisomerase IB": "DNA topoisomerase IB (Leishmania donovani, UniProt A0A3Q8IHS4+Q8WQM6)", "CHRM1": "Muscarinic acetylcholine receptor M1 (CHRM1, Homo sapiens, UniProt P11229)", "P2RY2": "P2Y purinoceptor 2 (P2RY2, Homo sapiens, UniProt P41231)", "GPBAR1": "G-protein coupled bile acid receptor 1 (GPBAR1, Homo sapiens, UniProt Q8TDU6)", "P2RY4": "P2Y purinoceptor 4 (P2RY4, Homo sapiens, UniProt P51582)", "note": "Protocols differ between the studies behind these lines. Values joined by “and” are separate records of one study, mostly repeats; a detail may differ. ± gives the spread as reported.", "sequence of UniProt P41231 (whole entry, looked up)": "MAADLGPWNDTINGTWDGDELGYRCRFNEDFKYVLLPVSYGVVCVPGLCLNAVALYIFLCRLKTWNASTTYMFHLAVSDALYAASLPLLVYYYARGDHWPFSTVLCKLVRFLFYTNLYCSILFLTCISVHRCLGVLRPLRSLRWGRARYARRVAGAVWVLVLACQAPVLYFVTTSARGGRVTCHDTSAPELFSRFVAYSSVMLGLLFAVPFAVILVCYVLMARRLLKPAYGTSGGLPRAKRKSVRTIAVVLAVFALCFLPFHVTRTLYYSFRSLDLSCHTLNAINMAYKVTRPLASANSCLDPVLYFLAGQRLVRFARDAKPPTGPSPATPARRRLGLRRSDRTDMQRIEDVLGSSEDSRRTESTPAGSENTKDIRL", "sequence of UniProt P56450 (whole entry, looked up)": "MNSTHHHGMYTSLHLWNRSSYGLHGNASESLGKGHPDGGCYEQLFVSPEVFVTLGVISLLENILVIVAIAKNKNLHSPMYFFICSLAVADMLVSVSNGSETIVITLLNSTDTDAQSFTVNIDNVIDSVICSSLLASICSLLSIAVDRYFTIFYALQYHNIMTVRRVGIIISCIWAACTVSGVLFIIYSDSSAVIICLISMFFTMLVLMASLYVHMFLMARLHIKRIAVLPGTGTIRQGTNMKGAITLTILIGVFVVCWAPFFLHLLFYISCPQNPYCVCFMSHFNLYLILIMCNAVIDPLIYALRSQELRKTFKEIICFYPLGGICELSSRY", "sequence of UniProt P11607 (whole entry, looked up)": "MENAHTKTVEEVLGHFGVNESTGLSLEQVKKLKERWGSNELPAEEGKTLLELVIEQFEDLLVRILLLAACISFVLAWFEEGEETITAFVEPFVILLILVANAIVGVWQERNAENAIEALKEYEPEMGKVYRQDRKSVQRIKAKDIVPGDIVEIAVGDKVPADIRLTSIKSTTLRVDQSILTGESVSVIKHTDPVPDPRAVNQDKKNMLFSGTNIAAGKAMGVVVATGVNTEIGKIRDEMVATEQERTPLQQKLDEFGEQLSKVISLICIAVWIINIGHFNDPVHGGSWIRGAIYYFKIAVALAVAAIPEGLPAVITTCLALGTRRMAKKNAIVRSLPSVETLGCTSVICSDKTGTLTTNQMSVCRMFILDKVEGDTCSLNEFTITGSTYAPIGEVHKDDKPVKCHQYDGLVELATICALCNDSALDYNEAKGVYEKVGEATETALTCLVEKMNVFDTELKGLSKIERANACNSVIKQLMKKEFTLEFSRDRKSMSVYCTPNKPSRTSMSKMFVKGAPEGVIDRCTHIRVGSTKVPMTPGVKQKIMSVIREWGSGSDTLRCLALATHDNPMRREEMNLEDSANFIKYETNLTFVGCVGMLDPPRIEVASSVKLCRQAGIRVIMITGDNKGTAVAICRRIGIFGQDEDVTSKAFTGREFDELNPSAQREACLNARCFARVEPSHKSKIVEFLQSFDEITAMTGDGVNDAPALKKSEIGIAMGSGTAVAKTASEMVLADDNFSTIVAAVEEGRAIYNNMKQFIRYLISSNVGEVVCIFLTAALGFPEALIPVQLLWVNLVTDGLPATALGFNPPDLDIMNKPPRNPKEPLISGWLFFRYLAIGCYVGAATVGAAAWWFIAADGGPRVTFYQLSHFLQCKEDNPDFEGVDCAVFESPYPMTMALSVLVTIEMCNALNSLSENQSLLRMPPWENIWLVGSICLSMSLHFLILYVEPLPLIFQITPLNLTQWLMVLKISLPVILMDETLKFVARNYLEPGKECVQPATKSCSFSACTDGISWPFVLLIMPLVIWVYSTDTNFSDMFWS", "sequence of UniProt P51582 (whole entry, looked up)": "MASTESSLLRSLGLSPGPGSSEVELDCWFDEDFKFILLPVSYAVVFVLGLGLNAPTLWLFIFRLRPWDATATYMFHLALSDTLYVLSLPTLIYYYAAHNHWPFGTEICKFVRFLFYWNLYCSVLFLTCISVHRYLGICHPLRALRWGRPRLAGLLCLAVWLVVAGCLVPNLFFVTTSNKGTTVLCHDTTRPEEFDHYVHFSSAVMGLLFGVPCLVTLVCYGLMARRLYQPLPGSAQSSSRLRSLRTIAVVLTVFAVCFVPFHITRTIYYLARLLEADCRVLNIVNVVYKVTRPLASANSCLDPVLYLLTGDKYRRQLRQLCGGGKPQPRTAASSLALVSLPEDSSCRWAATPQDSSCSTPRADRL", "sequence of UniProt P11229 (whole entry, looked up)": "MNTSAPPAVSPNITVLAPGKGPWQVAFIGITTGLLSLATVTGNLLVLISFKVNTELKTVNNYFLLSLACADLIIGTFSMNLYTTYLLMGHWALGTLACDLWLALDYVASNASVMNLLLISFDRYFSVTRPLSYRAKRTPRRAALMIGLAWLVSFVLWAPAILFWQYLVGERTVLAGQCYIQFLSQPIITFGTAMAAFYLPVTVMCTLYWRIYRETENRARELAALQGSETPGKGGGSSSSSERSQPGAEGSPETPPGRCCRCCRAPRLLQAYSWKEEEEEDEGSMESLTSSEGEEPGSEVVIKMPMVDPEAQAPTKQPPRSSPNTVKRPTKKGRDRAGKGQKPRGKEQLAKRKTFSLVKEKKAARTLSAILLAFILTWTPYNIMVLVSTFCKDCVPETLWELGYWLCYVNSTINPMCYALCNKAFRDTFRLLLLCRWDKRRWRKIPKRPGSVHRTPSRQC", "sequence of UniProt Q8TDU6 (whole entry, looked up)": "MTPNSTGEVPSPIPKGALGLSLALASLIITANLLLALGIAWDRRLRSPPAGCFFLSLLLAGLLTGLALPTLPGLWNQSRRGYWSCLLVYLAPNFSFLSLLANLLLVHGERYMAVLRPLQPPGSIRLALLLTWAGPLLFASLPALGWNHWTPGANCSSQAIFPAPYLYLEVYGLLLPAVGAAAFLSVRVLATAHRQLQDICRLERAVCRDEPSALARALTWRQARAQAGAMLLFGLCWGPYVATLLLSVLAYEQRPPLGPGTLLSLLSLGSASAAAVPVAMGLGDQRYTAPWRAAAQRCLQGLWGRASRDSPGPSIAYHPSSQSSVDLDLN", "sequence of UniProt Q9NYW4 (whole entry, looked up)": "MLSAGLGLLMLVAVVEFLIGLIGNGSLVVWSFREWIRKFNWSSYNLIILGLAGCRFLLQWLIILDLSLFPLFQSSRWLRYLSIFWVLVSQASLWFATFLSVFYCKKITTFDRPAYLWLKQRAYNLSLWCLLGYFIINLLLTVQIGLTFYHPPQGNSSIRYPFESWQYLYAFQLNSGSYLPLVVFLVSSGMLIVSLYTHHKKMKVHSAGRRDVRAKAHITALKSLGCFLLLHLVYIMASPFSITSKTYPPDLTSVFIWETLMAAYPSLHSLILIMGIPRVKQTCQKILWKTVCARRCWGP", "sequence of UniProt P41595 (whole entry, looked up)": "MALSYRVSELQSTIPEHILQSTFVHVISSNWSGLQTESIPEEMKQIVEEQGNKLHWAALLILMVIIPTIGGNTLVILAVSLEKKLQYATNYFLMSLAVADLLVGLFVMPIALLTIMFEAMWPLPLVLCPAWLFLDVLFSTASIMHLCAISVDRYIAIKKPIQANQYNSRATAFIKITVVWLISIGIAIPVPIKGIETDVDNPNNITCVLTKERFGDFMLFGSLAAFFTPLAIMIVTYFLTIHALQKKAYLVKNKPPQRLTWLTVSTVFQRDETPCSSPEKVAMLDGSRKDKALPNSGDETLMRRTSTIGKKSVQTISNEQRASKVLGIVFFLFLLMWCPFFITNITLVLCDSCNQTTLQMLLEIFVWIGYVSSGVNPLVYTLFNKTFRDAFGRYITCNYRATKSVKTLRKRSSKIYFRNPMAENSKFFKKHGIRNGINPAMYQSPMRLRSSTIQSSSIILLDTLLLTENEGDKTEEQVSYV", "sequence of UniProt Q62007 (whole entry, looked up)": "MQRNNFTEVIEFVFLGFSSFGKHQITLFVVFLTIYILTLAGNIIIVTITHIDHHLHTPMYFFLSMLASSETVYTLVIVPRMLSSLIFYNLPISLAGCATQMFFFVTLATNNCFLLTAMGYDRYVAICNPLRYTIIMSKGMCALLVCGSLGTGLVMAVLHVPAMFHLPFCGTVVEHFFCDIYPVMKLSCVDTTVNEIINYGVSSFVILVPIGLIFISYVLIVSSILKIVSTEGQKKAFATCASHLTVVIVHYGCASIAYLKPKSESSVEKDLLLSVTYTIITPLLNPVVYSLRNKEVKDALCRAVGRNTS", "sequence of UniProt P28335 (whole entry, looked up)": "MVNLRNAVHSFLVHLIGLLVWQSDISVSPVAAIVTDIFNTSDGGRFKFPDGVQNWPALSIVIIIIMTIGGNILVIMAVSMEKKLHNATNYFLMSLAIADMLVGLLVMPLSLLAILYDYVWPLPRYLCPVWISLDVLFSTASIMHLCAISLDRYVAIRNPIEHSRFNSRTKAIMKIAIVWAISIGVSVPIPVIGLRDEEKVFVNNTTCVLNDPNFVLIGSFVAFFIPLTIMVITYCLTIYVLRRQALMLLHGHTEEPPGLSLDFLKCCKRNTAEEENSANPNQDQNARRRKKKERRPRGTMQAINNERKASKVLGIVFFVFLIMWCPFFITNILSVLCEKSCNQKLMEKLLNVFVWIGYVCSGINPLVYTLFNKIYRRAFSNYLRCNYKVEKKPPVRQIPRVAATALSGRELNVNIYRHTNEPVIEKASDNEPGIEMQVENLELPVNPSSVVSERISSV", "sequence of UniProt P11474 (whole entry, looked up)": "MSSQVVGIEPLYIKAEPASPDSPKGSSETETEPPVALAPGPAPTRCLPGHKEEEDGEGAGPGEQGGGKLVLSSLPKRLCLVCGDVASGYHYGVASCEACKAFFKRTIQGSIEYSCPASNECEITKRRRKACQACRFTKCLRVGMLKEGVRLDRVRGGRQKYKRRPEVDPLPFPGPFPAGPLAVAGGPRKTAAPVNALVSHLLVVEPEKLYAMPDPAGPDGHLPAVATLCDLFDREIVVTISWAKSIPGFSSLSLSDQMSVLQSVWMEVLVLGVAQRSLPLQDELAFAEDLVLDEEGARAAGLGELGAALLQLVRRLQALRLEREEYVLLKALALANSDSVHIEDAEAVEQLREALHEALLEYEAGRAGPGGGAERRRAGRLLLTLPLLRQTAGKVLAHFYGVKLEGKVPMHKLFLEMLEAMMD"}
{"Structure (SMILES)": "O=C(NN=Cc1ccccc1)c1ccccc1O", "target": "ESRRA (Homo sapiens, UniProt P11474)", "assay": "reporter gene, agonist, luciferase reporter", "system": "HEK293 transfected", "EC50": "0.619 µM"}
{"Structure (SMILES)": "CSCC[C@H](NC(=O)[C@H](CO)NC(=O)[C@H](Cc1ccc(O)cc1)NC(=O)[C@H](CO)NC(C)=O)C(=O)N[C@@H](CCC(=O)O)C(=O)N[C@@H](Cc1c[nH]cn1)C(=O)N[C@@H](Cc1ccccc1)C(=O)N[C@@H](CCCNC(=N)N)C(=O)N[C@@H](Cc1c[nH]c2ccccc12)C(=O)NCC(=O)N[C@@H](C)C(=O)N1CCC[C@H]1C(=O)N[C@H](C(N)=O)C(C)C", "target": "Melanocortin receptor 4", "EC50": "0.04 ± 0.015 µM"}
{"Structure (SMILES)": "CC(C)(O)CCCC1=CCC(C=O)CC1 (stereo not drawn)", "target": "Or10j5 (Mus musculus, UniProt Q62007)", "assay": "ion current, agonist, patch clamp", "EC50": "0.6 µM"}
{"Structure (SMILES)": "CCN(Cc1ccccc1OC)C(=O)c1cccc(Br)c1F", "target": "ATP2A2", "assay": "Ca2+-ATPase activity, activator", "system": "porcine cardiac SR vesicles", "conditions": "maximal Ca2+ activity", "EC50": "5.9 ± 1.3 µM"}
{"Structure (SMILES)": "CCCCCCCCCCCCCCCCC(=O)O", "target": "DNA topoisomerase IB", "assay": "DNA relaxation, inhibitor", "conditions": "30 min, 37 °C", "EC50": "> 1000 µM"}
{"Structure (SMILES)": "Cc1c(-c2ccc(CN3C(=O)C4(CCN(C5CCCC5)C4)c4ccccc43)c(F)c2)cnn1C (stereo not drawn)", "target": "CHRM1", "assay": "acetylcholine response, positive allosteric modulator", "system": "cell-based", "conditions": "inactive up to 30 µM", "EC50": "> 30 µM"}
{"Structure (SMILES)": "BP(=O)(OC[C@H]1O[C@@H](n2cnc3c(N)ncnc32)[C@H](O)[C@@H]1O)OP(=O)(O)OP(=O)(O)OC[C@H]1O[C@@H](n2cnc3c(N)ncnc32)[C@H](O)[C@@H]1O (stereo partly drawn)", "target": "P2RY2", "assay": "intracellular calcium rise, agonist", "system": "1321N1 expressing human P2Y2", "conditions": "37 °C", "EC50": "> 100 µM"}
{"Structure (SMILES)": "C[C@H](CCC(=O)N[C@H](Cc1ccc(O)cc1)C(=O)O)[C@H]1CC[C@H]2[C@@H]3[C@H](O)C[C@@H]4C[C@H](O)CC[C@]4(C)[C@H]3C[C@H](O)[C@]12C", "target": "GPBAR1", "assay": "G protein activation, agonist, BRET", "EC50": "528 µM"}
{"Structure (SMILES)": "CC1=NN(CC(=O)Nc2ccc(Br)cc2)C(=O)CC1c1ccccc1 (racemic)", "target": "N-formyl peptide receptor 3 (Homo sapiens, UniProt P25089)", "assay": "calcium signal, agonist", "EC50": "0.49 µM"}
{"Structure (SMILES)": "CCCN(Cc1ccccc1OC)C(=O)c1scc(C)c1C", "target": "ATP2A2", "assay": "Ca2+-ATPase activity, activator", "system": "porcine cardiac SR vesicles", "conditions": "maximal Ca2+ activity", "EC50": "4.8 ± 0.7 µM"}
{"Structure (SMILES)": "CC1(C)Cc2cc(Cl)cc(C3CC3CN)c2O1 (racemic)", "target": "HTR2C (Homo sapiens, UniProt P28335)", "assay": "calcium signal, agonist, fluorescence", "EC50": "0.6 µM"}
{"Structure (SMILES)": "CC(=O)N[C@@H](CO)C(=O)N[C@@H](Cc1ccc(O)cc1)C(=O)N[C@@H](CO)C(=O)N[C@@H](C)C(=O)N[C@@H](CCC(=O)O)C(=O)N[C@@H](Cc1c[nH]cn1)C(=O)N[C@@H](Cc1ccccc1)C(=O)N[C@@H](CCCNC(=N)N)C(=O)N[C@@H](Cc1c[nH]c2ccccc12)C(=O)NCC(=O)N[C@@H](CCCCN)C(=O)N1CCC[C@H]1C(=O)N[C@H](C(N)=O)C(C)C", "target": "Melanocortin receptor 4", "EC50": "0.12 ± 0.033 µM"}
{"Structure (SMILES)": "CCCN(Cc1ccccc1OC)C(=O)c1cccs1", "target": "ATP2A2", "assay": "Ca2+-ATPase activity, activator", "system": "porcine cardiac SR vesicles", "conditions": "maximal Ca2+ activity", "EC50": "6.1 ± 1.8 µM"}
{"Structure (SMILES)": "O=c1[nH]c(=O)n([C@@H]2O[C@H](COP(=O)(O)OP(=O)(O)OP(=O)(O)O[C@H]3O[C@H](CO)[C@@H](O)[C@H](O)[C@H]3O)[C@@H](O)[C@H]2O)cc1I", "target": "P2RY2", "assay": "PLC activation, agonist", "system": "1321N1, transfected", "EC50": "> 10 µM"}
{"Structure (SMILES)": "COC(=O)CC[C@@H](C)[C@H]1CC[C@H]2[C@@H]3CC[C@@H]4C[C@@H](OC(=O)CCCCCC(=O)O)CC[C@]4(C)[C@H]3CC[C@]12C", "target": "human 20S proteasome", "assay": "chymotrypsin-like activity, activator", "conditions": "without PA28", "EC50": "> 15 µM"}
{"Structure (SMILES)": "CC(C)C[C@H](NC(=O)CC[C@@H](C)[C@H]1CC[C@H]2[C@@H]3[C@H](O)C[C@@H]4C[C@H](O)CC[C@]4(C)[C@H]3CC[C@]12C)C(=O)O", "target": "GPBAR1", "assay": "G protein activation, agonist, BRET", "EC50": "50.1 µM"}
{"Structure (SMILES)": "CO/N=c1/ccn([C@@H]2O[C@H](COP(=O)(O)OP(=O)(O)OP(=O)(O)O[C@H]3O[C@H](CO)[C@@H](O)[C@H](O)[C@H]3O)[C@@H](O)[C@H]2O)c(=O)[nH]1", "target": "P2RY4", "assay": "PLC activation, agonist", "system": "1321N1, transfected", "EC50": "> 10 µM"}
{"Structure (SMILES)": "CC1C=CCCOC(=O)c2c(O)cc(O)cc2CC(=NOCC(=O)N2CCCCC2)C=CC1 (stereo not drawn)", "target": "HSP90AA1 (Homo sapiens, UniProt P07900)", "assay": "binding, fluorescence polarisation competition", "conditions": "20 nM HSP90, E/Z oxime mixture, together with: fluorescein-labelled 17-AAG analogue", "EC50": "0.021 µM"}
{"Structure (SMILES)": "COc1ccccc1CN(C(=O)c1cc(C)c(C)s1)C(C)C", "target": "ATP2A2", "assay": "Ca2+-ATPase activity, activator", "system": "porcine cardiac SR vesicles", "conditions": "maximal Ca2+ activity", "EC50": "4.7 ± 1.1 µM"}
{"Structure (SMILES)": "c1cnc2c(c1)ccc1cccnc12", "target": "TAS2R5 (Homo sapiens, UniProt Q9NYW4)", "assay": "calcium signal, agonist", "EC50": "22.9 µM"}
{"Structure (SMILES)": "CCCC[C@H](NC(=O)[C@H](CO)NC(=O)[C@H](C)NC(=O)[C@H](CO)NC(C)=O)C(=O)N[C@@H](CCC(=O)O)C(=O)N[C@@H](Cc1c[nH]cn1)C(=O)N[C@H](Cc1ccccc1)C(=O)N[C@@H](CCCNC(=N)N)C(=O)N[C@@H](Cc1c[nH]c2ccccc12)C(=O)NCC(=O)N[C@@H](CCCCN)C(=O)N1CCC[C@H]1C(=O)N[C@H](C(N)=O)C(C)C", "target": "Melanocortin receptor 4", "EC50": "0.00032 ± 2e-05 µM"}
{"Structure (SMILES)": "C=CCOc1ccc(F)cc1[C@H]1C[C@@H]1CN.Cl", "target": "HTR2B (Homo sapiens, UniProt P41595)", "EC50": "inactive"}
{"Structure (SMILES)": "CCCC[C@H](NC(=O)[C@H](CO)NC(=O)[C@H](Cc1ccc(O)cc1)NC(=O)[C@H](C)NC(C)=O)C(=O)N[C@@H](CCC(=O)O)C(=O)N[C@@H](Cc1c[nH]cn1)C(=O)N[C@H](Cc1ccccc1)C(=O)N[C@@H](CCCNC(=N)N)C(=O)N[C@@H](Cc1c[nH]c2ccccc12)C(=O)NCC(=O)N[C@@H](CCCCN)C(=O)N1CCC[C@H]1C(=O)N[C@H](C(N)=O)C(C)C", "target": "Melanocortin receptor 4", "EC50": "0.00017 ± 3e-05 µM"}
{"Structure (SMILES)": "BP(=O)(OC[C@H]1O[C@@H](n2cnc3c(N)ncnc32)[C@H](O)[C@@H]1O)OP(=O)(O)OP(=O)(O)OP(=O)(O)OC[C@H]1O[C@@H](n2cnc3c(N)ncnc32)[C@H](O)[C@@H]1O (stereo partly drawn)", "target": "P2RY4", "assay": "intracellular calcium rise, agonist", "system": "1321N1 expressing human P2Y4", "conditions": "37 °C", "EC50": "> 100 µM"}
{"Structure (SMILES)": "CCCCCCCCCCC#CCCCC(OC)C(=O)O (racemic)", "target": "DNA topoisomerase IB", "assay": "DNA relaxation, inhibitor", "conditions": "30 min, 37 °C", "EC50": "16.6 ± 1.1 µM"}
{"Structure (SMILES)": "CCCC[C@H](NC(=O)[C@H](CO)NC(=O)[C@H](Cc1ccc(O)cc1)NC(=O)[C@H](CO)NC(C)=O)C(=O)N[C@@H](CCC(=O)O)C(=O)N[C@@H](Cc1c[nH]cn1)C(=O)N[C@H](Cc1ccccc1)C(=O)N[C@@H](CCCNC(=N)N)C(=O)N[C@@H](Cc1c[nH]c2ccccc12)C(=O)NCC(=O)N[C@@H](CCCCN)C(=O)N[C@@H](C)C(=O)N[C@H](C(N)=O)C(C)C", "target": "Melanocortin receptor 4", "EC50": "0.00083 ± 0.00018 µM"}
{"Structure (SMILES)": "CCCCCC=CC=C1C(=O)C=C[C@@H]1CC=CCCCC(=O)O", "target": "Trpa1 (Mus musculus, UniProt Q8BLA8)", "assay": "calcium signal, agonist, fluorescence", "EC50": "5.6 µM"}
{"Structure (SMILES)": "CCCC[C@H](NC(=O)[C@H](CO)NC(=O)[C@H](Cc1ccc(O)cc1)NC(=O)[C@H](CO)NC(C)=O)C(=O)N[C@@H](CCC(=O)O)C(=O)N[C@@H](C)C(=O)N[C@H](Cc1ccccc1)C(=O)N[C@@H](CCCNC(=N)N)C(=O)N[C@@H](Cc1c[nH]c2ccccc12)C(=O)NCC(=O)N[C@@H](CCCCN)C(=O)N1CCC[C@H]1C(=O)N[C@H](C(N)=O)C(C)C", "target": "Melanocortin receptor 4", "EC50": "0.00032 ± 4e-05 µM"}
{"Structure (SMILES)": "O=C(Cn1c(=O)ccn([C@@H]2O[C@H](COP(=O)(O)OP(=O)(O)OP(=O)(O)O[C@H]3O[C@H](CO)[C@@H](O)[C@H](O)[C@H]3O)[C@@H](O)[C@H]2O)c1=O)c1ccccc1", "target": "P2RY2", "assay": "PLC activation, agonist", "system": "1321N1, transfected", "EC50": "> 10 µM"}
{"Structure (SMILES)": "CCCC[C@H](NC(=O)[C@H](CO)NC(=O)[C@H](Cc1ccc(O)cc1)NC(=O)[C@H](CO)NC(C)=O)C(=O)N[C@@H](CCC(=O)O)C(=O)N[C@@H](Cc1c[nH]cn1)C(=O)N[C@H](Cc1ccccc1)C(=O)N[C@@H](CCCNC(=N)N)C(=O)N[C@@H](Cc1c[nH]c2ccccc12)C(=O)N[C@@H](C)C(=O)N[C@@H](CCCCN)C(=O)N1CCC[C@H]1C(=O)N[C@H](C(N)=O)C(C)C", "target": "Melanocortin receptor 4", "EC50": "0.0002 ± 3e-05 µM"}
{"Structure (SMILES)": "CCCCCCCCCCCCCC#CCCCCC(=O)O", "target": "DNA topoisomerase IB", "assay": "DNA relaxation, inhibitor", "conditions": "30 min, 37 °C, together with: supercoiled pHOT plasmid", "EC50": "49 µM and 36 to 49 µM"}
{"Structure (SMILES)": "CSCC[C@H](NC(=O)[C@H](CO)NC(=O)[C@H](Cc1ccc(O)cc1)NC(=O)[C@H](CO)NC(C)=O)C(=O)N[C@@H](CCC(=O)O)C(=O)N[C@@H](Cc1c[nH]cn1)C(=O)N[C@@H](Cc1ccccc1)C(=O)N[C@@H](CCCNC(=N)N)C(=O)N[C@@H](Cc1c[nH]c2ccccc12)C(=O)NCC(=O)N[C@@H](CCCCN)C(=O)N1CCC[C@H]1C(=O)N[C@@H](C)C(N)=O", "target": "Melanocortin receptor 4", "EC50": "0.032 ± 0.014 µM"}
{"Structure (SMILES)": "Cn1cc(-c2ccc(Cn3ccccc3=O)c(F)c2)cn1", "target": "CHRM1", "assay": "calcium response, positive allosteric modulator", "system": "HM1 cells", "conditions": "together with: acetylcholine", "EC50": "> 30 µM"}
